Assay results gathered from unrelated publications.
Compare with care: the assays were run in different laboratories.
Organism: Candida albicans

| Compound | assay | system | conditions | MIC |
| --- | --- | --- | --- | --- |
| OC(Cn1cncn1)(Cn1cncn1)c1ccc(F)cc1F | – | CAF2-1 | – | 1 µg/mL |
| OC(Cn1cncn1)(Cn1cncn1)c1ccc(F)cc1F | broth microdilution | 7 | 24 h, compound alone | 4 µg/mL |
| NOCC(=O)O | – | CAF2-1 | – | 1000 µg/mL |
| Nc1nc(=O)[nH]cc1F | broth microdilution | BNCC 186382 | – | 8 µg/mL |
| OC(Cn1cncn1)(Cn1cncn1)c1ccc(F)cc1F | – | SP3903, RPMI MOPS | 48 h, 37 °C | 32 µM |
| OC(Cn1cncn1)(Cn1cncn1)c1ccc(F)cc1F | broth microdilution | BNCC 186382 | – | 4 µg/mL |
| CCCCCOc1ccc(-c2ccc(-c3ccc(C(=O)N[C@H]4C[C@@H](O)[C@@H](OCC[N+](C)(C)C)NC(=O)[C@@H]5[C@@H](O)[C@@H](C)CN5C(=O)[C@H]([C@@H](C)O)NC(=O)[C@H]([C@H](O)[C@@H](O)c5ccc(O)cc5)NC(=O)[C@@H]5C[C@@H](O)CN5C(=O)[C@H]([C@@H](C)O)NC4=O)cc3)cc2)cc1 | CLSI broth microdilution | 580 | – | 0.016 µg/mL |
| C[C@@H]1[C@H](O)[C@@H](C)/C=C/C=C/C=C/C=C/C=C/C=C/C=C/[C@H](O[C@@H]2O[C@H](C)[C@@H](O)[C@H](N)[C@@H]2O)C[C@@H]2O[C@](O)(C[C@@H](O)C[C@@H](O)[C@H](O)CC[C@@H](O)C[C@@H](O)CC(=O)O[C@H]1C)C[C@H](O)[C@H]2C(=O)O | – | alveolar fluid isolate, RPMI MOPS | 48 h, 37 °C | 1 µM |
| OC(Cn1cncn1)(Cn1cncn1)c1ccc(F)cc1F | – | ATCC 90029 | 24 h | 12.5 µg/mL |
| N#CC(C#N)=C1SC(C(=O)c2ccc(Nc3cnccn3)cc2)=NN1c1ccc([N+](=O)[O-])cc1 | broth microdilution | ATCC 10231 | – | 6.25 µg/mL |

Repeated from above:
| Compound | assay | system | conditions | MIC |
| --- | --- | --- | --- | --- |
| N#CC(C#N)=C1SC(C(=O)c2ccc(Nc3cnccn3)cc2)=NN1c1ccc([N+](=O)[O-])cc1 | broth microdilution | ATCC 10231 | – | 6.25 µg/mL |
